Experimental data pooled from the literature.
Parts stem from different laboratories: compare values within a part only. Positions count from the first letter of the parent shown.
UniProt Q9H832, sequence (whole entry, looked up): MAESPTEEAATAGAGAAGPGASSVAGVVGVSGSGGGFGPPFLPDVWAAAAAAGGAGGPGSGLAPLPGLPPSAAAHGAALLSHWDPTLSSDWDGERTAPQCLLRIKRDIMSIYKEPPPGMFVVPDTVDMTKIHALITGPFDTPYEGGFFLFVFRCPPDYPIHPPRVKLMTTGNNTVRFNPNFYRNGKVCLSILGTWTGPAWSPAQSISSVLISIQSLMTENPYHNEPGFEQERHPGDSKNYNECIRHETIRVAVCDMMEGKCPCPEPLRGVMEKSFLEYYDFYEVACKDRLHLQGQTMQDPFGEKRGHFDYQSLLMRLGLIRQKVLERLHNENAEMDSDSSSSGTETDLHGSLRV
UniProt Q9C0C9, sequence (whole entry, looked up): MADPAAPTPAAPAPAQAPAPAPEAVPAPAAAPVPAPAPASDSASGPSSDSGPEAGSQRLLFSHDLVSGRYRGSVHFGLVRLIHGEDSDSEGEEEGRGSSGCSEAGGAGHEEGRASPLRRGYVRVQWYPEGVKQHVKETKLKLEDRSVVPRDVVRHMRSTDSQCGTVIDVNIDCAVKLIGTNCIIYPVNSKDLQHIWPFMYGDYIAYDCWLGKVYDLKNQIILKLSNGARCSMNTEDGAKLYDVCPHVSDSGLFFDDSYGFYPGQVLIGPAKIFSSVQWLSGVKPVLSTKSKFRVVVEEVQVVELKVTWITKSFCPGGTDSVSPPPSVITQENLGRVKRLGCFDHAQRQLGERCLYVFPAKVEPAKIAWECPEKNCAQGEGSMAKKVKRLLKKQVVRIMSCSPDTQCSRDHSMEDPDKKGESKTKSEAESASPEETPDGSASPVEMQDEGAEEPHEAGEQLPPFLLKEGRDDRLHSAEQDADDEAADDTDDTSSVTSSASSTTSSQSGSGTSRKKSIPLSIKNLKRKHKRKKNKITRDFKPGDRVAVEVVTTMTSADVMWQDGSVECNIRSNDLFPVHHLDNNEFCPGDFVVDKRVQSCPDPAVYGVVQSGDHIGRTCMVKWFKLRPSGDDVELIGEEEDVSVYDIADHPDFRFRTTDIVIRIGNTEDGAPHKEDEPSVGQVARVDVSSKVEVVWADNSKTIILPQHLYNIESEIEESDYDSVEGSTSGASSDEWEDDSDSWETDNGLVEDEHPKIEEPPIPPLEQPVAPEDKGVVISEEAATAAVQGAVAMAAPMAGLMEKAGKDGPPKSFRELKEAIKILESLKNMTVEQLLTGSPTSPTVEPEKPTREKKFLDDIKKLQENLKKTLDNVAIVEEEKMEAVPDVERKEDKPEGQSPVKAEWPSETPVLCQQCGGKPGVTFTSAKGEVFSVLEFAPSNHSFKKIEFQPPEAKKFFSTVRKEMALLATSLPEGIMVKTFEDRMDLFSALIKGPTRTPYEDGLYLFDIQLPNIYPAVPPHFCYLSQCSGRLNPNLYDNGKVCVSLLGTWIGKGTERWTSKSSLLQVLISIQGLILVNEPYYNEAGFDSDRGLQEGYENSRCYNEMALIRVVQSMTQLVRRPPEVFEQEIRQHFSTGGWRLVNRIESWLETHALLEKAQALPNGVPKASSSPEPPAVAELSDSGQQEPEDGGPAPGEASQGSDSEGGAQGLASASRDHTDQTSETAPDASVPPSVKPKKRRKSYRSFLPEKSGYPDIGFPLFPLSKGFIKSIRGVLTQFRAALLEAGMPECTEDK
UniProt Q969T4, sequence (whole entry, looked up): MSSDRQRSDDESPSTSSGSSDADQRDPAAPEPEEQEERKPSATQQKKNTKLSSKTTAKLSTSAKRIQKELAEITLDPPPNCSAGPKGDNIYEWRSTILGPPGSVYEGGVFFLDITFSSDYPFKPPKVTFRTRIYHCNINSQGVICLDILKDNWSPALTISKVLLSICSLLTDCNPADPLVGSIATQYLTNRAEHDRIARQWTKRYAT
UniProt P68036, sequence (whole entry, looked up): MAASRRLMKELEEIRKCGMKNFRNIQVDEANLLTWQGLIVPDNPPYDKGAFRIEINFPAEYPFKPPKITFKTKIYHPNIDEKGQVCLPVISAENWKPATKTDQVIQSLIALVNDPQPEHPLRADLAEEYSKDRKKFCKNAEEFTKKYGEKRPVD
UniProt P63146, sequence (whole entry, looked up): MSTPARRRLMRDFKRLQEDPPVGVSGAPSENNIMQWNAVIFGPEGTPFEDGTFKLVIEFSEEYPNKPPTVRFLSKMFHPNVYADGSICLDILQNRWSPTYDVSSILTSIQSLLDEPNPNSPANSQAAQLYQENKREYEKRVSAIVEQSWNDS
UniProt Q9NPD8, sequence (whole entry, looked up): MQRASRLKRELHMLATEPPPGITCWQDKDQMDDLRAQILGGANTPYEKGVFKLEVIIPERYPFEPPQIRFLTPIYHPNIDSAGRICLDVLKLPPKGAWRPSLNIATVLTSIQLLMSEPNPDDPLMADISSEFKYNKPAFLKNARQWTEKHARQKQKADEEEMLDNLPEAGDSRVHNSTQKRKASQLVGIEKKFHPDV
UniProt O00762, sequence (whole entry, looked up): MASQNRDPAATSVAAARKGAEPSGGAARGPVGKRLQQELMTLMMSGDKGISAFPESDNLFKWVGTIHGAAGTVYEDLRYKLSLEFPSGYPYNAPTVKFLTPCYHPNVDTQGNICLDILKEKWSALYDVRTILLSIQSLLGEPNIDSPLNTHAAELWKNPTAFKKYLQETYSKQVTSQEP

Series 1
Target: ABI1, truncated, D143A, DHFR fusion (Arabidopsis thaliana)
Technique: DHFR PCA, deep sequencing
Sample: yeast
Setting: methotrexate growth selection, single substitutions
With: (+)-ABA 200 µM
Relative to: wild-type fitted maximum
Direction: higher = stronger binding
Starting sequence: PYL1, truncated, DHFR fusion (Arabidopsis thaliana); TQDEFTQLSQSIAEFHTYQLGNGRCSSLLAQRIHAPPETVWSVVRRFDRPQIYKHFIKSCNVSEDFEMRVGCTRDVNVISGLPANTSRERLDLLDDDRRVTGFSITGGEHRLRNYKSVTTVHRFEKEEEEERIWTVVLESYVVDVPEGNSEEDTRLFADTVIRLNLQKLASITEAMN; partner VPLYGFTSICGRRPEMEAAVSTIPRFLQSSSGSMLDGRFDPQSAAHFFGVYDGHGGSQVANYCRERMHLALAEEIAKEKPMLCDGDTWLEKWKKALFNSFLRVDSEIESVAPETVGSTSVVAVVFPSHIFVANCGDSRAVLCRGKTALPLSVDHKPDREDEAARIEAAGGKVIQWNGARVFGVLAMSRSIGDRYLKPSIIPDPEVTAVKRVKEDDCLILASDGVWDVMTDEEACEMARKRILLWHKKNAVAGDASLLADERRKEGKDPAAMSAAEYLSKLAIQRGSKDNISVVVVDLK
`R74M` — result for “relative binding score”: 7.7%.
`F15V`: “relative binding score” 64.3%.
Under “relative binding score”, `S27L` is recorded as 4.94%.
`E139L` — result for “relative binding score”: 77.5%.
`G102Q`: “relative binding score” 73.5%.
For `S104C`, “relative binding score” read 81.1%.
`R99H` — result for “relative binding score”: 101%.
`R155N` — result for “relative binding score”: 74.8%.
Under “relative binding score”, `Q2A` is recorded as 95.4%.
For `T135P`, “relative binding score” read 8.39%.
`N77R`: “relative binding score” 107%.
`T1V` — result for “relative binding score”: 103%.
`V118A`: “relative binding score” 71.9%.
`E128R` — result for “relative binding score”: 109%.
`G107Q`: “relative binding score” 77.4%.
`V145F` — result for “relative binding score”: 31.1%.
`Y115N` — result for “relative binding score”: -1.89%.

Series 2
Target: Prothrombin, mature alpha-thrombin (F2, Homo sapiens, UniProt P00734)
Technique: aptamer microarray, sandwich
Form: DNA with 2'F-ANA
Sample: in vitro
Tested at: 200 nM
Setting: whole 15-mer aptamer, many near background
With: Cy3 exosite-II aptamer, 400 nM
Direction: higher = stronger binding
Sequence: GGTTGGTGTGGTTGG
`2'F-ANA at 1 2 4 6 7 8 11 13 15`: “mean fluorescence intensity” 87.3 a.u.
`2'F-ANA at 2 3 6 9 12 13 14` — result for “mean fluorescence intensity”: 363 a.u.
`2'F-ANA at 1 7 9 10 11 14 15`: “mean fluorescence intensity” 45.6 a.u.
`2'F-ANA at 2 3 4 6 7 9 10 11 13` — result for “mean fluorescence intensity”: 190 a.u.
For `2'F-ANA at 1 2 3 7 9 14`, “mean fluorescence intensity” read 75.7 a.u.
`2'F-ANA at 1 4 6 7 9 11 12`: “mean fluorescence intensity” 170 a.u.
Under “mean fluorescence intensity”, `2'F-ANA at 1 3 5 11` is recorded as 139 a.u.
For `2'F-ANA at 2 4 10 13 14 15`, “mean fluorescence intensity” read 64.9 a.u.
Under “mean fluorescence intensity”, `2'F-ANA at 1 2 4 6 7 8 9 11 13 14` is recorded as 68.4 a.u.
Under “mean fluorescence intensity”, `2'F-ANA at 3 8 10 12 14 15` is recorded as 414 a.u.
`2'F-ANA at 4 6 7 8 10 12 13 14` — result for “mean fluorescence intensity”: 60.1 a.u.
`2'F-ANA at 3 5 6 7 9 10 14` — result for “mean fluorescence intensity”: 48.5 a.u.
`2'F-ANA at 1 3 4 6 7 8 9 14`: “mean fluorescence intensity” 83.5 a.u.
For `2'F-ANA at 3 8 9 12`, “mean fluorescence intensity” read 1520 a.u.
For `2'F-ANA at 1 2 4 6 9 11 12 13`, “mean fluorescence intensity” read 132 a.u.
Under “mean fluorescence intensity”, `2'F-ANA at 1 3 4 5 8 9 10 11 13 14 15` is recorded as 67.9 a.u.
`2'F-ANA at 1 2 4 5 6 7 9 13 14` — result for “mean fluorescence intensity”: 48.2 a.u.
`2'F-ANA at 1 2 3 4 5 8 11 12 14 15` — result for “mean fluorescence intensity”: 49.4 a.u.
`2'F-ANA at 4 5 6 10 12 13 15` — result for “mean fluorescence intensity”: 46.5 a.u.
`2'F-ANA at 1 2 3 4 5 6 11 13 14 15`: “mean fluorescence intensity” 52.8 a.u.
`2'F-ANA at 1 2 7 8 13 14 15` — result for “mean fluorescence intensity”: 90.2 a.u.
For `2'F-ANA at 1 2 4 6 8 12 14`, “mean fluorescence intensity” read 76.5 a.u.
`2'F-ANA at 1 6 9 12 15`: “mean fluorescence intensity” 352 a.u.
Under “mean fluorescence intensity”, `2'F-ANA at 1 2 5 7 8 9 13 15` is recorded as 49.6 a.u.
`2'F-ANA at 2 3 6 8 9 10 11 13 14 15` — result for “mean fluorescence intensity”: 241 a.u.

Series 3
Target: CCNE1, cyclin fold, Cln2 fusion (human)
Technique: yeast growth competition, sequencing
Sample: yeast
Setting: strong parent motif
Relative to: not given
Direction: higher = stronger binding
Starting sequence: GMNC docking peptide (human); KNAKRNLSSEFAN
Under “normalised enrichment score”, `K4G` is recorded as 0.036.
`R5Y`: “normalised enrichment score” 0.425.
Under “normalised enrichment score”, `K4A` is recorded as 0.34.
`A3N` — result for “normalised enrichment score”: 0.141.
`N6D` — result for “normalised enrichment score”: 0.644.
`A12I` — result for “normalised enrichment score”: 1.02.
For `F11A`, “normalised enrichment score” read 0.123.
For `K4S`, “normalised enrichment score” read 0.257.
For `L7S`, “normalised enrichment score” read 0.137.
`S8T` — result for “normalised enrichment score”: 1.18.
`L7I`: “normalised enrichment score” 0.247.
Under “normalised enrichment score”, `S9E` is recorded as 1.45.
Under “normalised enrichment score”, `R5W` is recorded as 0.201.
`S9M`: “normalised enrichment score” 1.61.
Under “normalised enrichment score”, `A12S` is recorded as 1.25.
`N2Q` — result for “normalised enrichment score”: 1.38.
Under “normalised enrichment score”, `N2F` is recorded as 0.784.
`F11P` — result for “normalised enrichment score”: -0.199.
`N6I` — result for “normalised enrichment score”: 0.314.

Series 4
Sequence: B1 (TRIM40 RING domain)
Technique: yeast two-hybrid
Sample: yeast
Setting: mostly zero background
Relative to: not given
Direction: higher = stronger interaction
B1: TRIM40 RING domain (UniProt Q6P9F5); chain LQKDNQEEGVCPICQESLKEAVSTNCGHLFCRVCLTQHVEKASASGVFCCPLCRKPCSEEVLG
UBE2L3 UBC core domain (UniProt P68036) — “lacZ reporter activity”: 0.
For UBE2C UBC core domain (UniProt O00762): “lacZ reporter activity” read 0.
The “lacZ reporter activity” was 0 (UBE2T UBC core domain (UniProt Q9NPD8)).
It gave 0 for “lacZ reporter activity” (UBE2E3 UBC core domain (UniProt Q969T4)).
The “lacZ reporter activity” was 0 (UBE2B UBC core domain (UniProt P63146)).
It gave 0 for “lacZ reporter activity” (UBE2O UBC core domain (UniProt Q9C0C9)).
For UBE2Z UBC core domain (UniProt Q9H832): “lacZ reporter activity” read 0.

Series 5
Target: NFIL3, bZIP domain (human)
Technique: DHFR protein complementation
Sample: yeast
Setting: single substitutions, most at no-binding floor
Relative to: wild-type JUN-FOS pair
Direction: higher = stronger binding
Starting sequence: JUN, bZIP domain (human); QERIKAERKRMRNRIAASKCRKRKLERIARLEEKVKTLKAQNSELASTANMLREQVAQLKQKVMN; partner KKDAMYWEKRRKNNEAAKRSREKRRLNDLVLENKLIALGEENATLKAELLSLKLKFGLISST
The binding fitness of `S47R` is reported as -1.37 natural log.
`S47P` has a binding fitness of -1.4 natural log.
For `N42V`, the binding fitness was -1.33 natural log.
`R53N` gave a binding fitness of -1.44 natural log.
`T48C` has a binding fitness of -1.35 natural log.
For `V56N`, the binding fitness was -1.54 natural log.
With `V35P` the binding fitness was -1.41 natural log.
`E44M` gave a binding fitness of -1.56 natural log.
`E54L` has a binding fitness of -1.5 natural log.
`E32K` gave a binding fitness of -1.48 natural log.
The binding fitness of `Q41V` is reported as -1.28 natural log.
With `A40W` the binding fitness was -1.5 natural log.
`A29Y` has a binding fitness of -1.39 natural log.
With `V35E` the binding fitness was -1.5 natural log.
With `E33C` the binding fitness was -1.57 natural log.
With `E44Q` the binding fitness was -1.57 natural log.
`A29P` gave a binding fitness of -1.53 natural log.
`E44R` has a binding fitness of -1.44 natural log.
The binding fitness of `V56W` is reported as -1.48 natural log.
For `M51Q`, the binding fitness was -1.46 natural log.
The binding fitness of `A46W` is reported as -1.33 natural log.
The binding fitness of `L45C` is reported as -1.48 natural log.
The binding fitness of `L45P` is reported as -1.55 natural log.
For `K34G`, the binding fitness was -1.45 natural log.
`I28F` has a binding fitness of -1.47 natural log.

A few entries again (series 5):
With `V35E` the binding fitness was -1.5 natural log.
With `E33C` the binding fitness was -1.57 natural log.
With `E44Q` the binding fitness was -1.57 natural log.
`A29P` gave a binding fitness of -1.53 natural log.
`E44R` has a binding fitness of -1.44 natural log.
The binding fitness of `V56W` is reported as -1.48 natural log.
For `M51Q`, the binding fitness was -1.46 natural log.
The binding fitness of `A46W` is reported as -1.33 natural log.
The binding fitness of `L45C` is reported as -1.48 natural log.
The binding fitness of `L45P` is reported as -1.55 natural log.
For `K34G`, the binding fitness was -1.45 natural log.
`I28F` has a binding fitness of -1.47 natural log.
